Assay results gathered from unrelated publications.
Protocols differ between the studies behind these lines. ± marks the error that the study gave.

The concentration of COc1ccc(S(=O)(=O)Nc2nc(-c3cccc([N+](=O)[O-])c3)c(CN3CCCCC3)s2)cc1OC is reported as 119 nM (mouse wild type, brain; oral, 300 mg/kg, 5 h).
The blood glucose of NCCCC[C@@H]1NC(=O)[C@@H](Cc2c[nH]c3ccccc23)NC(=O)[C@H](c2ccccc2)NC(=O)[C@@H]2C[C@@H](OC(=O)NCCN)CN2C(=O)[C@H](Cc2ccccc2)NC(=O)[C@H](Cc2ccc(OCc3ccccc3)cc2)NC1=O is reported as 146 mg/dL (healthy human volunteers; subcutaneous, 1200 µg, 2 h, post-prandial).
With CC(C)NC[C@@H](C(=O)N1CCN(c2ncnc3c2[C@H](C)C[C@H]3O)CC1)c1ccc(Cl)cc1 the apparent clearance was 191 L/h (human, Mild hepatic function, plasma; oral, 100 mg single dose, NCI classification, geometric mean).
The viscosity of CC[C@H](C)[C@H](NC(=O)[C@H](CCCCN)NC(=O)[C@@H]1CCCN1C(C)=O)C(=O)N[C@@H](CCC(=O)O)C(=O)N[C@H](C(=O)N[C@@H](CCCCN)C(=O)N[C@H](C(=O)N[C@@H](CCC(=O)O)C(=O)N1CCC[C@H]1C(N)=O)[C@@H](C)CC)[C@@H](C)CC is reported as 1040 ± 31.7 Pa·s (rotational rheometry; 0.5% w/v aqueous solution; shear rate range 1-1000 s^-1).
Under “AUC(0-inf), geometric mean”, CCCC[C@H](NC(C)=O)C(=O)N[C@H]1CCC(=O)NC[C@@H](C(=O)N[C@@H](Cc2c[nH]c3ccccc23)C(N)=O)NC(=O)[C@H](CCCNC(=N)N)NC(=O)[C@@H](Cc2ccccc2)NC(=O)[C@H](Cc2c[nH]cn2)NC1=O is recorded as 157 ng·h/mL (healthy volunteers, both sexes, plasma; subcutaneous, 3.0 mg single dose).
Under “AUC(0-t) arithmetic mean”, CC(C)c1nc(CN(C)C(=O)N[C@H](C(=O)N[C@@H](Cc2ccccc2)C[C@H](O)[C@H](Cc2ccccc2)NC(=O)OCc2cncs2)C(C)C)cs1 is recorded as 87300 ng·h/mL (healthy men, plasma; 600 mg single dose, together with: amenamevir 400 mg).
O=C(Cc1cccc(OC(F)(F)F)c1)Nc1ccc(CCCCc2nnc(NC(=O)Cc3ccccn3)s2)nn1 has a Cmin of 147 ng/mL (human; oral, 1000 mg twice daily, fed, steady state, cycle 1 day 15, median).
Cc1ccnc2c1NC(=O)c1cccnc1N2C1CC1 has an AUC(0-8 h) of 5110 ± 3630 ng·h/mL (olive baboon (Papio anubis), non-pregnant, serum; oral, 800 mg, tablet, single dose).
With O=C1N=C(N2CCOCC2)CN1c1ccc(Cl)cc1 the Tmax was 1.6 h (beagle dog, female; oral, 30 mg/kg, tablets, fed).
For CC(C)=CCC[C@](C)(O[C@@H]1O[C@H](CO)[C@@H](O)[C@H](O)[C@H]1O)[C@H]1CC[C@]2(C)[C@@H]1[C@H](O)C[C@@H]1[C@@]3(C)CC[C@H](O[C@@H]4O[C@H](CO)[C@@H](O)[C@H](O)[C@H]4O[C@@H]4O[C@H](CO)[C@@H](O)[C@H](O)[C@H]4O)C(C)(C)[C@@H]3CC[C@]12C, the CL/F was 18.3 ± 5 mL/min/kg (Sprague Dawley rat, male, plasma; oral, 42 mg/kg, in white ginseng extract).
O=C(O)[C@H](c1ccccc1Cl)N1CCc2sccc2C1 — result for “deviation from nominal”: -6% (HPLC-MS/MS; feline EDTA plasma; 48 h, -20 °C, storage stability).
Nc1cc(F)ccc1NC(=O)c1ccc(CNC(=O)/C=C/c2cccnc2)cc1 gave a renal clearance of 28.5 mL/min (Japanese patients, urine; oral, 30 mg twice weekly, cycle 1 day 25).
With `acyl ghrelin (human)` the brain/serum ratio was 4.27 µL/g (mouse, Ghsr knockout, thalamus; intravenous, 10 min).
`QTAEELLEV` has an alpha-helix content of 83.6% (far-UV CD; peptide, Tris-HCl buffer, 100 mM NaCl; pH 8.0, room temperature).
CC(C)Cc1nn(C)c(=O)c2c(SCCCO)n(Cc3ccc(C#CCCCOc4ccc(C[C@H](N)C(=O)O)cc4)c4ccccc34)cc12 gave a tumour concentration of 210 to 460 nM (NOD/SCID mouse, tumour-bearing, tumour; concentration not given, 24 h, range).
For C[C@]12CC[C@@H]3c4ccc(O)cc4CC[C@H]3[C@@H]1C[C@@H](O)[C@@H]2O, “maximum serum concentration” read 0.168 ng/mL (GC-MS; breast cancer women on NSAI, serum; vaginal, 0.03 mg, 2 h, day 0).
The CLint of N=C(N)NC(=O)c1cnn(-c2cccc3ncccc23)c1C1CC1 is reported as 297 ± 16 mL/min/kg (CD-1 mouse male, hepatic S9; 1 µM, pH 7.4, together with: without NADPH).
For [2H]C([2H])([2H])Oc1cc2c(cc1OC([2H])([2H])[2H])C1CC(=O)C(CC(C)C)CN1CC2 (stereo not shown), “geometric mean ratio Cmax” read 36.8% (measured: β-HTBZ; human, fasted; oral, 15 mg single dose; relative to: tetrabenazine 25 mg fasted).
C#Cc1c(F)ccc2cc(O)cc(-c3ncc4c(N5CC6CCC(C5)N6)nc(OC[C@@]56CCCN5C[C@H](F)C6)nc4c3F)c12 has a tumour concentration of 2110 ng/g (female Balb/c nude mouse, tumour model; oral, 126 mg/kg twice daily of prodrug, 2 h after last dose).
O=C(O)C(F)(F)c1cc(F)ccc1Nc1c(Cl)cccc1Cl has a remaining compound of 110 ± 6.4% (glucuronidation; human liver microsomes; 30 min, together with: UDPGA).
The concentration of Cc1nc(Nc2ncc(C(=O)Nc3c(C)cccc3Cl)s2)cc(N2CCN(CCO)CC2)n1 is reported as under 10 ng/mL (C57BL/6 mouse, male, urinary bladder; oral, 10 mg/kg, 5 min, undetectable).
For OC[C@H]1O[C@@H](c2ccc(Cl)c(Cc3ccc(O[C@H]4CCOC4)cc3)c2)[C@H](O)[C@@H](O)[C@@H]1O, the plasma concentration was 103 ± 61 ng/mL (HPLC-MS/MS; healthy Chinese volunteers, fasting; oral, 10 mg tablet, 0.5 h).
With O=C(c1cccnc1-c1ccncc1)N1CCC(O)(Cc2ccccc2)CC1 the renal clearance was 3.67 mL/min (healthy human, urine; oral, 100 mg once daily, day 1, arithmetic mean).
`des-acyl ghrelin (human)`: “initial brain distribution volume” 1.55 ± 0.67 µL/g (multiple-time regression; Ghsr knockout mice, whole brain; intravenous, dose not given).
CC1(C)Oc2cc3oc(=O)ccc3cc2C[C@@H]1O: “plasma BUN level” 9.7 ± 1.8 mg/dL (male CD-1 mouse, plasma; oral gavage, 80 mg/kg daily, 4 weeks).
The serum globulin of CN[C@H](CC(C)C)C(=O)N[C@H]1C(=O)N[C@@H](CC(N)=O)C(=O)N[C@H]2C(=O)N[C@H]3C(=O)N[C@H](C(=O)N[C@H](C(=O)O)c4cc(O)cc(O)c4-c4cc3ccc4O)[C@H](O)c3ccc(c(Cl)c3)Oc3cc2cc(c3O[C@@H]2O[C@H](CO)[C@@H](O)[C@H](O)[C@H]2O[C@H]2C[C@](C)(N)[C@H](O)[C@H](C)O2)Oc2ccc(cc2Cl)[C@H]1O is reported as 3 ± 1 g/dL (BALB/c mouse, serum; ip, dose not given).
The Tmax range of Cc1nc2cccc(OCC(C)(C)C(=O)NC(C)C)c2c(N)c1C(=O)O is reported as 1.5 to 3 h (Sprague-Dawley rat (both sexes), plasma; dietary, 30 to 100 mg/kg/day, day 7).
The microsomal CLint of Cc1cc(C)c(C(N)=O)c(SCC(=O)c2ccc(F)cc2)n1 is reported as under 23.1 µL/min/mg (metabolic stability; human, liver microsomes; 0.5 µM, pH 7.4).
COc1ccc2nc([S@@+]([O-])Cc3ncc(C)c(OC)c3C)[nH]c2c1 has an adverse events of 0% (human healthy; 40 mg, throat irritation).
CNCc1ccc(-c2cc(-c3nc(-c4ccc(S(=O)(=O)C(C)C)cc4)cnc3N)on2)cc1 has a CL of 64.6 mL/min/kg (mouse BALB/c female, plasma; intravenous, 60 mg/kg, from AUC(0-360)).
For CCCCCCCCCCCCCCCCCCOP(=O)([O-])OC1CC[N+](C)(C)CC1, the Tmax was 19 h (rhesus monkey, male, plasma; oral, 7 mg/kg, single dose).
For O=C(CCc1ccccc1)c1ccccc1OCC(O)CN1CCC(c2ccccc2)CC1 (stereo not shown), the scaled CLint was 19.4 mL/min/kg (metabolic stability; human, liver microsomes; 20 µM, pH 7.4).
CNCc1ccc(-c2[nH]c3cc(F)cc4c3c2CCNC4=O)cc1 has an AUC(0-t) of 800 ng·h/mL (human patients, plasma; oral, 80 mg once daily, day 1, 24 h, single dose, arithmetic mean).
The AUC(0-inf) of COc1ccc2[nH]c([S+]([O-])Cc3ncc(C)c(OC)c3C)nc2c1 (stereo not shown) is reported as 813 ± 523 ng·h/mL (healthy Chinese, CYP2C19 intermediate metabolizers, plasma; oral, 20 mg single dose).
The plasma concentration of CC(C)(O/N=C(\C(=O)N[C@H]1CN2CC(C(=O)NCCN3C(=O)c4cc(O)c(O)cc4C3=O)=C(C(=O)O)N2C1=O)c1nc(N)sc1Cl)C(=O)O is reported as 1000 ng/mL (CD-1 mouse, plasma; subcutaneous, 50 mg/kg, 8 h).
With CC(C)(O)c1ccccc1CC[C@@H](SCC1(CC(=O)O)CC1)c1cccc(/C=C/c2ccc3ccc(Cl)cc3n2)c1 the inhibition was 49% (rosiglitazone metabolism, inhibitor; human liver microsomes; 0.02 µM, together with: rosiglitazone 10 µM).
CC1=C2C[C@H]3[C@@H](CC[C@@H]4C[C@H](NS(C)(=O)=O)CC[C@@]43C)[C@@H]2CC[C@@]2(C1)O[C@@H]1C[C@H](C)CN[C@H]1[C@H]2C has an AUC(0-24) of 1830 ng·h/mL (patients, plasma; oral, 200 mg single, day -7, cycle 1).
`liraglutide`: “plasma protein binding” 99.7% (equilibrium dialysis; human plasma pooled; 10 nM, pH 7.4, 37 °C).
NC(N)=NCCC[C@H](NC(=O)[C@H](Cc1ccccc1)NC(=O)[C@@H]1CCCN1C(=O)[C@H](CO)NC(=O)[C@H](Cc1ccccc1)NC(=O)CNC(=O)[C@@H]1CCCN1C(=O)[C@@H]1CCCN1C(=O)[C@@H](N)CCCN=C(N)N)C(=O)O gave a concentration change of -53.9 ± 23% (LC-MS/MS; human serum, tube without gel; concentration not given, 4 h, room temperature; relative to: initial concentration).
For CCCOc1ccc([C@H]2CNC(=O)N2c2ccc3[nH]cnc3c2)cc1, “apparent terminal half-life” read 6.28 h (elderly human volunteers fasted, plasma; oral capsule, 300 mg twice daily, day 7, geometric mean).

Some of these lines once more:
The microsomal CLint of Cc1cc(C)c(C(N)=O)c(SCC(=O)c2ccc(F)cc2)n1 is reported as under 23.1 µL/min/mg (metabolic stability; human, liver microsomes; 0.5 µM, pH 7.4).
CC1=C2C[C@H]3[C@@H](CC[C@@H]4C[C@H](NS(C)(=O)=O)CC[C@@]43C)[C@@H]2CC[C@@]2(C1)O[C@@H]1C[C@H](C)CN[C@H]1[C@H]2C has an AUC(0-24) of 1830 ng·h/mL (patients, plasma; oral, 200 mg single, day -7, cycle 1).
With O=C1N=C(N2CCOCC2)CN1c1ccc(Cl)cc1 the Tmax was 1.6 h (beagle dog, female; oral, 30 mg/kg, tablets, fed).
For [2H]C([2H])([2H])Oc1cc2c(cc1OC([2H])([2H])[2H])C1CC(=O)C(CC(C)C)CN1CC2 (stereo not shown), “geometric mean ratio Cmax” read 36.8% (measured: β-HTBZ; human, fasted; oral, 15 mg single dose; relative to: tetrabenazine 25 mg fasted).
With `acyl ghrelin (human)` the brain/serum ratio was 4.27 µL/g (mouse, Ghsr knockout, thalamus; intravenous, 10 min).
NC(N)=NCCC[C@H](NC(=O)[C@H](Cc1ccccc1)NC(=O)[C@@H]1CCCN1C(=O)[C@H](CO)NC(=O)[C@H](Cc1ccccc1)NC(=O)CNC(=O)[C@@H]1CCCN1C(=O)[C@@H]1CCCN1C(=O)[C@@H](N)CCCN=C(N)N)C(=O)O gave a concentration change of -53.9 ± 23% (LC-MS/MS; human serum, tube without gel; concentration not given, 4 h, room temperature; relative to: initial concentration).
